Measurements collected from several papers.
Each line is one published result; not all experiments were run side by side. “And” joins repeats or separate records; there may be more than shown.

SMILES	cell line	test	conditions	scale	viability
NC(=O)N/N=C/c1ccc(OCc2cccc(F)c2)cc1	IMR-32	MTT	400 µg/mL, 24 h	baseline: untreated control	43.8%
CNC(=O)C[C@H](Cc1ccc(F)cc1)NC(=O)[C@@H](Cc1ccc(Cl)cc1Cl)NC(=O)[C@H](N)Cc1ccccc1[N+](=O)[O-]	Huh-7-ACE2	CellTiter-Glo	0.0122 µM, 48 h, unit not given	baseline: DMSO	1.04 and 0.89 and 0.895
CC(=O)N[C@H]1[C@H](Oc2ccc(C[C@H](NC(=O)CN)C(=O)N[C@@H](CCC(=O)O)C(=O)N[C@H](C(=O)N[C@@H](Cc3c[nH]cn3)C(=O)N[C@@H](Cc3c[nH]cn3)C(=O)N[C@@H](CCC(N)=O)C(=O)N[C@@H](CCCCN)C(=O)N[C@@H](CC(C)C)C(=O)N[C@H](C(=O)N[C@@H](Cc3ccccc3)C(=O)N[C@@H](Cc3ccccc3)C(=O)N[C@@H](C)C(N)=O)C(C)C)C(C)C)cc2)O[C@H](CO)[C@H](O)[C@@H]1O	SH-SY5Y	CCK-8	12.5 µM, 24 h	baseline: untreated	97.3% and 90.4% and 102% and 94.7%
CCOc1ccc(CN2CC[C@H]2C(=O)NC)cc1-c1cccc(C(=O)NC[C@@H]2COC(C)(C)O2)c1	Huh-7-ACE2	CellTiter-Glo	0.0061 µM, 48 h, unit not given	baseline: DMSO	1 and 0.939 and 1.04
CC(C)(C)N1Cc2cc(-c3nc4ccccc4s3)cc(n2)CN(C(C)(C)C)Cc2cc(-c3nc4ccccc4s3)cc(n2)C1	SH-SY5Y	AlamarBlue	20 µM, 40 h		~60%
O=c1n(CCNCCOS(=O)(=O)c2ccccc2)c(=O)n(S(=O)(=O)c2ccccc2)c(=O)n1S(=O)(=O)c1ccccc1	HUVEC	cell growth or viability, MTT	100 µg/mL, 24 h		59.5%
CNC(=S)N/N=C/c1ccc(OCc2ccccc2)cc1	IMR-32	MTT	500 µg/mL, 24 h	baseline: untreated control	43.5%
CC(=O)N[C@@H](Cc1c[nH]c2ccccc12)C(=O)NCCCCCCCCCCCC(=O)NCCCC[C@@H]1NC(=O)[C@H](CCCNC(=N)N)NC(=O)[C@H](CCCNC(=N)N)NC(=O)[C@H](CCCNC(=N)N)NC(=O)[C@H](CCCNC(=N)N)NC(=O)[C@H](CCCNC(=N)N)NC1=O	SK-OV-3	MTS	concentration not given, 24 h, up to 15 µM		≥ 74%
CNC(=O)CC[C@H](Cc1ccccc1)NC(=O)[C@@H](Cc1ccc(Cl)cc1Cl)NC(=O)[C@H](N)Cc1ccccc1[N+](=O)[O-]	Huh-7-ACE2	CellTiter-Glo	6.25 µM, 48 h, unit not given	baseline: DMSO	0.91 and 0.984 and 1.04
NC(=S)N/N=C/c1ccc(OCc2ccccc2)cc1	IMR-32	MTT	100 µg/mL, 24 h	baseline: untreated control	73.8%
